# Measured values from different studies.
# Protocols differ between the studies behind these lines. Values joined by “and” are separate records of one study, mostly repeats; a detail may differ. ± gives the spread as reported.
# Organism: Mycobacterium tuberculosis
Structure (SMILES),test,system,setting,how to read,measurement,result
CCc1nc2cc(C(F)(F)F)ccn2c1C(=O)NCc1ccc2oc(-c3ccc(Cl)cc3)nc2c1,microbial growth,H37RV,,,MIC90,> 25 µM
CCN(Cc1ccc2c(c1)OCO2)C(=O)CSc1nc(NC)c2ccccc2n1,microbial growth,,,,IC50,17.3 µM
NC(=O)c1cc(-c2ccoc2)ccc1OCCc1cccc(F)c1,,H37Rv-LP,,baseline: HepG2 CC50 over Mtb IC90,selectivity index,98
COc1ccc2ncc(F)c(C[C@H](O)[C@H]3OC[C@H](NCc4ccc5c(n4)NC(=O)CO5)CO3)c2c1,"growth inhibition, checkerboard",H37Rv,added: pretomanid,,FIC index,1
NC(=O)c1cc(-c2ccsc2)ccc1OCCc1cc(F)cc(F)c1,growth,H37Rv-LP,120 h,,IC90,0.13 ± 0.03 µM
CCC(CO)NCCNC(CC)CO.CCOc1cc(C=NNC(=O)c2ccncc2)ccc1OC(=O)CN1C(=O)CSC1=O,growth in combination,192,added: reference drug at 1/2 MIC,,MIC,0.5 µg/mL
COc1ccc(-c2ccc(Nc3cccc(S(=O)(=O)CCNCCc4cccs4)c3)nc2)cn1,"bacterial growth, inhibitor",mmpL3-TetON,,,IC50,14.5 µM
Cc1nc2cc(OC(F)(F)F)ccn2c1C(=O)NCc1ccc2oc(-c3ccc(OC(F)(F)F)cc3)nc2c1,microbial growth,H37RV,,,MIC90,> 10 µM
NC(=O)c1cc(-c2cncnc2)ccc1OCCc1cccc(F)c1,growth,H37Rv-LP,120 h,,IC90,> 100 µM
C#CCN(Cc1ccc2[nH]c(C)nc(=O)c2c1)c1ccc(C(=O)N[C@@H](CCC(=O)O)C(=O)O)cc1,"bacterial growth, inhibitor",H37Rv wild type,,,MIC90,> 100 µM
CCc1ccc(C2CC(C(F)(F)F)n3ncc(C(=O)NCc4cccs4)c3N2)cc1 (centres unmarked),"bacterial growth, inhibitor",mmpL3-TetON,,,IC50,0.21 µM
O=C(CN1C(=O)CSC1=O)Oc1ccc(/C=N/NC(=S)Nc2cccc(Cl)c2)cc1Cl,Alamar blue,192,,,MIC,32.2 µM
Cc1nc2cc(Br)ccn2c1C(=O)NCc1ccc2oc(-c3ccc(Cl)cc3)nc2c1,microbial growth,H37RV,,,MIC90,10 µM
NC(=O)c1cc(N2CCOCC2)ccc1OCCc1cccc(F)c1,growth,H37Rv-LP,120 h,,IC90,2.8 µM
CN(C)c1ccc(-c2nc3ccccc3n2CCCOc2ccccc2)cc1,microbial growth,,,,MIC50,> 10000 µM
CCc1ccc(C2CC(C(F)(F)F)n3ncc(C(=O)NCc4ccc(OC)cc4)c3N2)cc1 (centres unmarked),"bacterial growth, inhibitor",mmpL3-TetON,,,IC50,0.14 µM
C#CCN(Cc1ccc2nc(C)[nH]c(=O)c2c1)c1ccc(C(=O)N[C@@H](CCC(=O)OC)C(=O)OC)cc1,"bacterial growth, inhibitor",H37Rv wild type,,,MIC90,> 100 µM
CCC(CO)NCCNC(CC)CO.COc1cc(C=NNC(=O)c2ccncc2)ccc1OC(=O)CN1C(=O)CSC1=O,growth in combination,H37Rv,added: reference drug at 1/2 MIC,,MIC,0.5 µg/mL
Cc1ccc2nc(C(F)(F)F)c(C(=O)NCc3ccc4c(c3)OCO4)n2c1,microbial growth,,,,IC50,3.92 µM
Cc1cc(Oc2nc(N3CC[C@@H](c4ccncc4)C3)ncc2F)[nH]n1,OD,H37Rv PurF CRISPRi knockdown,"0.125 µM, added: anhydrotetracycline low",,normalised growth,2% and 3% and 1%
CCc1nc2cc(C(F)(F)F)ccn2c1C(=O)NCc1ccc2oc(-c3ccc(OC(F)(F)F)cc3)nc2c1,microbial growth,H37RV,,,MIC90,> 25 µM
CCC(CO)NCCNC(CC)CO.O=C(CN1C(=O)CSC1=O)Oc1ccc(C=NNC(=O)c2ccncc2)cc1Br,two-drug checkerboard,H37Rv,"concentration not given, unit not given",lower means more synergy,FICI,0.6
Cc1nc2ccc(OC(F)(F)F)cn2c1C(=O)NCc1ccc2oc(-c3ccc(Cl)cc3)nc2c1,microbial growth,H37RV,,,MIC90,> 10 µM
NC(=O)c1cc(-c2cccnc2)ccc1OCCc1cccc(F)c1,growth,H37Rv-LP,120 h,,IC90,7.5 ± 2.9 µM
COC(=O)C(=O)[C@H](CC(C)C)NC(=O)[C@H](CCCCN)NC(=O)[C@H](Cc1ccccc1)NC(=O)OCc1ccccc1,bacterial growth,"THP-1 macrophages, Mtb-lux",72 h,,IC50,3.3 ± 1.1 µM
CCc1nc2ccc(OC(F)(F)F)cn2c1C(=O)NCc1ccc2oc(-c3ccc(Cl)cc3)nc2c1,microbial growth,H37RV,,,MIC90,> 10 µM
O=C(CN1C(=O)CSC1=O)Oc1ccc(/C=N/NC(=O)c2ccncc2)cc1,"microbial growth, resazurin",H37RV,,,MIC,0.078 µM
COc1ccc2c(=O)c(C)c(-c3ccc(N4CCCCC4)cc3)[nH]c2c1,microbial growth,H37RV,,,IC90,1.96 µM
CCOc1cc(C=NNC(=O)c2cccnc2)ccc1OC(=O)CN1C(=O)CSC1=O.NNC(=O)c1ccncc1,two-drug checkerboard,H37Rv,"concentration not given, unit not given",lower means more synergy,FICI,2
CCc1nc2ccc(OC(F)(F)F)cn2c1C(=O)NCc1ccc2oc(-c3ccc(OC(F)(F)F)cc3)nc2c1,microbial growth,H37RV,,,MIC90,> 25 µM
Cc1ccccc1/C=C/C(=O)N[C@@H](CO)C(=O)N[C@H](C(=O)N[C@H](Cc1ccccc1)C(=O)O)[C@@H](C)O,,mc2 6230,"5 days, 37 °C",,MIC50,inactive
COc1ccc(-c2ccc(OCCc3cccc(F)c3)c(C(N)=O)c2)cn1,growth,H37Rv-LP,120 h,,IC90,> 100 µM
O=C(NC12CC3CC(CC(C3)C1)C2)c1cc2cc(Cl)ccc2[nH]1,microbial growth,,,,IC50,0.09 µM
CCC(CO)NCCNC(CC)CO.CCOc1cc(C=NNC(=S)Nc2cccc(Cl)c2)ccc1OC(=O)CN1C(=O)CSC1=O,growth in combination,192,added: reference drug at 1/2 MIC,,MIC,0.5 µg/mL
c1cc2c(s1)CCOC21CCN(Cc2ccc3c(c2)OCCO3)CC1,microbial growth,,,,IC50,0.59 µM
CCc1nc2cc(Br)ccn2c1C(=O)NCc1ccc2oc(-c3ccc(OC(F)(F)F)cc3)nc2c1,microbial growth,H37RV,,,MIC90,> 10 µM
NNC(=O)c1ccncc1.O=C(CN1C(=O)CSC1=O)Oc1ccc(/C=N/NC(=O)c2ccccn2)cc1Br,growth in combination,H37Rv,added: reference drug at 1/2 MIC,,MIC,0.0156 µg/mL
Cc1c(CN2CCN(C)CC2)cc(-c2ccc(Cl)cc2)n1-c1ccc(Cl)cc1,microbial growth,,,,IC50,7.88 µM

# Some of these lines once more:
Structure (SMILES),test,system,setting,how to read,measurement,result
COc1ccc2c(=O)c(C)c(-c3ccc(N4CCCCC4)cc3)[nH]c2c1,microbial growth,H37RV,,,IC90,1.96 µM
CCc1nc2cc(C(F)(F)F)ccn2c1C(=O)NCc1ccc2oc(-c3ccc(Cl)cc3)nc2c1,microbial growth,H37RV,,,MIC90,> 25 µM
CCC(CO)NCCNC(CC)CO.COc1cc(C=NNC(=O)c2ccncc2)ccc1OC(=O)CN1C(=O)CSC1=O,growth in combination,H37Rv,added: reference drug at 1/2 MIC,,MIC,0.5 µg/mL
Cc1cc(Oc2nc(N3CC[C@@H](c4ccncc4)C3)ncc2F)[nH]n1,OD,H37Rv PurF CRISPRi knockdown,"0.125 µM, added: anhydrotetracycline low",,normalised growth,2% and 3% and 1%
